Literature values that unrelated publications cite.
Each line is one published result; not all experiments were run side by side. Numbers after ± are the reported error.

Compound	tested on	test	test system	setting	endpoint	result
O=c1nc([C@@H]2CCCN2)[nH]c2c1oc1ccc(Cl)cc12	CDC7	inhibitor			IC50	0.0034 µM
CC12C(=O)OC(=O)C1(C)C1CCC2O1 (centres unmarked)	protein phosphatase 1 catalytic subunit	enzyme activity, inhibitor			IC50	0.2 to 8 µM
CCCCCOc1ccc(-c2ccc(-c3ccc(C(=O)N[C@H]4C[C@@H](O)[C@@H](O)NC(=O)[C@@H]5[C@@H](O)[C@@H](C)CN5C(=O)[C@H]([C@@H](C)O)NC(=O)[C@H]([C@H](O)[C@@H](O)c5ccc(O)cc5)NC(=O)[C@@H]5C[C@@H](O)CN5C(=O)[C@H]([C@@H](C)O)NC4=O)cc3)cc2)cc1			mild hepatic impairment patients	50 mg single dose	AUC(0-inf)	56 ± 11.7 µg·h/mL
COc1ccc(-c2nn3c(-c4ccco4)nnc3s2)cc1OC	DCTPP1	inhibitor			IC50	0.019 µM
C[C@@](O)(/C=C/[C@H]1CC=CC(=O)O1)[C@@H](C[C@@H](O)\C=C/C=C\C=C\CO)OP(=O)(O)O	protein phosphatase 2A catalytic subunit	enzyme activity, inhibitor			IC50	~0.002 µM
NC(=O)c1ncn([C@@H]2O[C@H](CO)[C@@H](O)[C@H]2O)n1	IMPDH2	inhibitor			IC50	0.1 to 0.25 µM
C[C@@H]1CN(c2ncc(C(O)CO)cc2Cl)CCN1c1nc2c(-c3cc(F)c(F)c(F)c3)cc(C(F)(F)F)cc2[nH]1 (some centres unmarked)	TRPV1 (rat)	antagonist, cell-based		together with: capsaicin	IC50	0.0009 µM
CC(C)[C@H](NC(=O)[C@H](CCCNC(=N)N)NC(=O)N[C@@H](Cc1ccccc1)C(=O)O)C(=O)N[C@H](C=O)CCCNC(=N)N	CTSB				IC50	0.9 µM
COC(=O)C1=CO[C@@H](O[C@@H]2O[C@H](CO)[C@@H](O)[C@H](O)[C@H]2O)[C@@H]2[C@@H](C)[C@@H](O)C[C@H]12	BChE	inhibitor			IC50	33 µM
Cc1nc2c([N+](=O)[O-])c(Cl)c(Cl)cc2n1Cc1ccc([B-]23OC(=O)C[N+]2(C)CC(=O)O3)cc1 (centres unmarked)	dCTPase DCTPP1	inhibitor			IC50	0.047 µM
O=C(NC[C@H]1CN(c2ccc(N3CCOCC3=O)cc2)C(=O)O1)c1ccc(Cl)s1	factor Xa, clot-associated	inhibitor		closed non-flow system	IC50	0.0007 µM
COc1ccc2c(c1)[nH]c1c(C)nccc12	human CLK2	kinase activity, inhibitor			IC50	0.28 µM
CC(C)C[C@H](NC(=O)[C@H](Cc1ccccc1)NC(=O)c1cnccn1)B(O)O	CTSA	enzyme activity, inhibitor, MS-based activity-based protein profiling			IC50	2.5 µM
c1ccc2c(c1)OCC(C1=NCCN1)O2 (centres unmarked)	imidazoline I2 receptor, central	radioligand binding			IC50	0.012 µM
CC(C)(C)c1nc(-c2cccc(NS(=O)(=O)c3c(F)cccc3F)c2F)c(-c2ccnc(N)n2)s1	NEK9	inhibitor			IC50	0.001 µM
CC[C@H](C)[C@@H](C(=O)O[C@@H](CC(C)C)C(=O)N[C@@H](CC(C)C)C(=O)N[C@@H](C)/C=C/C(=O)N1C(=O)C=C(OC)[C@@H]1C)N(C)C	cathepsin B	enzyme activity, inhibitor			IC50	11.7 µM
CNc1nc(C)nc(N[C@H]2CCC[C@@H](C(=O)NCc3ccc(C#N)cc3C(F)(F)F)C2)n1	mouse soluble epoxide hydrolase	enzyme activity, inhibitor			IC50	0.189 µM

Excerpt of the above:
Compound	tested on	test	test system	setting	endpoint	result
COc1ccc(-c2nn3c(-c4ccco4)nnc3s2)cc1OC	DCTPP1	inhibitor			IC50	0.019 µM
C[C@@](O)(/C=C/[C@H]1CC=CC(=O)O1)[C@@H](C[C@@H](O)\C=C/C=C\C=C\CO)OP(=O)(O)O	protein phosphatase 2A catalytic subunit	enzyme activity, inhibitor			IC50	~0.002 µM
